Assay results from different studies.
Protocols differ between the studies behind these lines. Numbers after ± are the reported error.
B1: UGT1A9 (Homo sapiens, UniProt O60656); chain GKLLVVPMDGSHWFTMRSVVEKLILRGHEVVVVMPEVSWQLGRSLNCTVKTYSTSYTLEDLDREFKAFAHAQWKAQVRSIYSLLMGSYNDIFDLFFSNCRSLFKDKKLVEYLKESSFDAVFLDPFDNCGLIVAKYFSLPSVVFARGILCHYLEEGAQCPAPLSYVPRILLGFSDAMTFKERVRNHIMHLEEHLLCHRFFKNALEIASEILQTPVTEYDLYSHTSIWLLRTDFVLDYPKPVMPNMIFIGGINCHQGKPLPMEFEAYINASGEHGIVVFSLGSMVSEIPEKKAMAIADALGKIPQTVLWRYTGTRPSNLANNTILVKWLPQNDLLGHPMTRAFITHAGSHGVYESICNGVPMVMMPLFGDQMDNAKRMETKGAGVTLNVLEMTSEDLENALKAVINDKSYKENIMRLSSLHKDRPVEPLDLAVFWVEFVMRHKGAPHLRPAAHDLTWYQYHSLDVIGFLLAVVLTVAFITFKCCAYGYRKCLGKKGRVKKAHKSKTH

Substance | tested on | assay | test system | conditions | quantity | result
O=C(O)/C=C/c1ccc(O)c(O)c1 |  | UPLC-MS/MS | Wistar rat, microcirculation dysfunction model, plasma | oral, 100 mg/kg Salvia miltiorrhiza stem-leaf extract FS | AUC(0-t) | 40.8 ± 4.34 ng·h/mL
CN(Cc1cnc2nc(N)nc(N)c2n1)c1ccc(C(=O)N[C@@H](CCC(=O)O)C(=O)O)cc1 |  |  | rat, plasma | oral, 5.0 mg/kg, 2880 min, together with: indican 40.0 mg/kg oral | AUC(0-t) | 3.8 ± 0.655 µM·h
CS(=O)(=O)c1ccc(-c2cnc(N)c(-c3ccc(C(F)(F)F)nc3)c2)cc1 |  |  | pregnant female Sprague-Dawley rat, plasma | oral, 10 mg/kg/day, gestation day 6 | AUC(0-t) | 32900 ng·h/mL
O=C(/C=C/c1ccc(O)c2c1[C@H](C(=O)O)[C@@H](c1ccc(O)c(O)c1)O2)O[C@H](Cc1ccc(O)c(O)c1)C(=O)O |  | UPLC-MS/MS | Wistar rat, microcirculation dysfunction model, plasma | oral, 100 mg/kg Salvia miltiorrhiza stem-leaf extract FT | AUC(0-t) | 153 ± 60.5 ng·h/mL
B1 (UGT1A9) | O=c1cc(-c2ccccc2)oc2cc(O)cc(O)c12 | steady-state kinetics |  | pH 7.4, 37 °C | Km | 0.25 µM
C=CC(=O)Nc1cc(Nc2nccc(-c3cn(C)c4ccccc34)n2)c(OC)cc1N(C)CCN(C)C |  |  | male Sprague-Dawley rat, plasma | oral, 10 mg/kg, PEG200 pretreatment only | AUC(0-t) | 534 ± 143 ng·h/mL
CCN1CCN(c2ccc(Nc3cc(N(C)C(=O)Nc4c(Cl)c(OC)cc(OC)c4Cl)ncn3)cc2)CC1 |  | LC-MS/MS | juvenile male Crl:WI(Han) rats, plasma | oral gavage, 1.0 mg/kg/day, postnatal day 17 | AUC(0-t) | 354 ng·h/mL
colistin methanesulfonate |  | LC-MS/MS | rat, kidney cortex | i.p., 10 mg/kg colistin base activity | AUC(0-t) | 162 µg·h/g
CNC(=O)c1ccc(-c2cnc3ncc(Cc4ccc5ncccc5c4)n3n2)cc1F |  |  | moderate hepatic impairment | oral, 200 mg, geometric mean | AUC(0-t) | 5660 ng·h/mL
CCCC[C@H](NC(C)=O)C(=O)N[C@H]1CCC(=O)NC[C@@H](C(=O)N[C@@H](Cc2c[nH]c3ccccc23)C(N)=O)NC(=O)[C@H](CCCNC(=N)N)NC(=O)[C@@H](Cc2ccccc2)NC(=O)[C@H](Cc2c[nH]cn2)NC1=O |  |  | CD Sprague-Dawley rat, male, plasma | subcutaneous, 1.0 mg/kg/day, day 1 | AUC(0-t) | 1030 ng·h/mL
C[C@@H]1O[C@@H](OC[C@H]2O[C@@H](Oc3c(-c4ccc(O)c(O)c4)oc4cc(O)cc(O)c4c3=O)[C@H](O)[C@@H](O)[C@@H]2O)[C@H](O)[C@H](O)[C@H]1O |  | UPLC-MS/MS | Wistar rat, microcirculation dysfunction model, plasma | oral, 100 mg/kg Salvia miltiorrhiza stem-leaf extract FT | AUC(0-t) | 85.3 ± 14.6 ng·h/mL

Repeated from above:
Substance | tested on | assay | test system | conditions | quantity | result
CN(Cc1cnc2nc(N)nc(N)c2n1)c1ccc(C(=O)N[C@@H](CCC(=O)O)C(=O)O)cc1 |  |  | rat, plasma | oral, 5.0 mg/kg, 2880 min, together with: indican 40.0 mg/kg oral | AUC(0-t) | 3.8 ± 0.655 µM·h
O=C(O)/C=C/c1ccc(O)c(O)c1 |  | UPLC-MS/MS | Wistar rat, microcirculation dysfunction model, plasma | oral, 100 mg/kg Salvia miltiorrhiza stem-leaf extract FS | AUC(0-t) | 40.8 ± 4.34 ng·h/mL
